Experimental data of several laboratories.
Compare with care: the assays were run in different laboratories. ± marks the error that the study gave.

| Compound | cell line | assay | setting | IC50 [µM] |
| --- | --- | --- | --- | --- |
| CC1=C2[O][Ru-]([Cl])[O+]=C2C=CN1CCCCCCCCCCCCN1C=CC2=[O+][Ru-]([Cl])[O]C2=C1C.Cc1ccc(C(C)C)cc1.Cc1ccc(C(C)C)cc1 | LCLC-103H | cell growth or viability, crystal violet | 96 h | 2.5 |
| C=C1C2CC3C4N5CC6(C)CCCC47C6C5CC3(C1O)C7C2 (stereo not shown) | HBE | cell growth or viability, MTT | – | 39.9 |
| C=C(CC)C(=O)c1ccc(OCC(=O)NCCNC(=O)COc2ccc(C(=O)C(=C)CC)c(Cl)c2Cl)c(Cl)c1Cl | A549/DDP | cell growth or viability, CCK-8 | 72 h | ~1.2 |
| O=c1ccn([C@@H]2O[C@H](CO)[C@@H](O)[C@H](F)[C@H]2O)c(=O)[nH]1 | Molt4/C8 | cell growth or viability | – | > 200 |
| CCCC(CCC)C(=O)[O][Pt]([NH2])([NH2])([Cl])([Cl])[O]C(=O)c1ccccc1OC(C)=O | BCPAP | cell growth or viability, MTT | 72 h | 0.01 |
| CCCCCC(=O)NCCNC(=O)[C@]1(C)[C@@H]2CC[C@]3(C)[C@H](C(=O)C=C4[C@@H]5[C@@H](C)[C@H](C)CC[C@]5(C)CC[C@]43C)[C@@]2(C)CC[C@H]1OC(C)=O | HBE | cell growth or viability, MTT | 48 h | 12.7 |
| CCOP(=O)(OCC)C(Cc1ccccc1F)Nc1ccc(Cl)cc1 (stereo not shown) | U-118-MG | cell growth or viability, MTT | 48 h | 91.2 |
| COc1ccc2cc3[n+](cc2c1OCc1cn(Cc2c(Cl)cc(Cl)cc2Cl)nn1)CCc1cc2c(cc1-3)OCO2 | SW1990 | cell growth or viability, MTT | – | 13.3 |
| Cc1cc(C=O)cc(C)c1Oc1cc(Nc2ccc(C#N)cn2)nc2cnccc12 | HuCC-A1 | – | 48 h | > 126 |
| Cc1cc(N)c2cc(NC(=O)CCCCCC(=O)Nc3ccc4nc(C)cc(N)c4c3)ccc2n1 | CHO wild type | FGF2 binding to heparan sulfate, inhibitor, flow cytometry | on ice, with: biotinylated FGF2 2.5 nM | > 100 |
| CC(=O)O[C@@H]1CC[C@@]2(C)[C@@H](CC[C@]3(C)[C@@H]2C(=O)C=C2[C@@H]4[C@@H](C)[C@H](C)CC[C@]4(C)CC[C@]23C)[C@@]1(C)C(=O)NCCNC(=O)CCCC[P+](c1ccccc1)(c1ccccc1)c1ccccc1 | HBE | cell growth or viability, MTT | 48 h | > 30 |
| N=C(N)NCCC[C@H](N)C(=O)N[C@@H](CC(=O)N[C@@H](CC(=O)O)C(=O)O)c1cccc2ccccc12 | MCF-7 (no HER2 overexpression) | – | – | > 50 |
| COc1c(O)c(Br)c2oc3c(Br)c(O)c(CC=C(C)C)c(O)c3c(=O)c2c1CC=C(C)C | SW480 | cell growth or viability | 48 h | 36.6 |
| CC1(C)CCC(CN2CCN(c3ccc(C(=O)NS(=O)(=O)c4ccc(NCC5COCCO5)c([N+](=O)[O-])c4)c(N4CCCOc5nc6[nH]ccc6cc54)c3)CC2)=C(c2ccc(Cl)cc2)C1 (stereo not shown) | RS4;11 | apoptosis, TMRM and annexin V | 72 h | 0.00193 |
| N=C(N/N=C/c1ccc(Cl)cc1)N/N=C/c1ccc(Cl)cc1 | KP-4 | cell growth or viability, crystal violet | 72 h | 36.6 |
| NC1=N[N+](=Cc2c3ccccc3cc3ccccc23)[Ga-3]23([S]1)([S]C(N)=N[N+]2=Cc1c2ccccc2cc2ccccc12)[S]C(N)=N[N+]3=Cc1c2ccccc2cc2ccccc12 | CCD-18Co | – | 48 h | 41.9 ± 1.9 |
| CC(C)c1cccc(C(C)C)c1N1CCN(c2c(C(C)C)cccc2C(C)C)C1=[Se].[Cl][Ag] | LoVo | cell growth or viability, MTT | 72 h | 2.7 |
| COC(=O)[C@H]1[C@H]2C[C@H]3O[C@@]4(CCN3C[C@H]2C[C@@H](OC(=O)c2cc(OC)c(OC)c(OC)c2)[C@@H]1OC)C(=O)Nc1cc(OC)c(-c2ccccc2)cc14 | RS4-11 | cell growth or viability, trypan blue | 72 h | 10.2 |
| CN1CCN(C(=O)N(CCCCCCC(=O)NO)c2ccc(-c3ccc4cnn(C)c4c3)cc2)CC1 | MJ | cell viability | 72 h | 0.0933 ± 0.0042 |

Excerpt of the above:
| Compound | cell line | assay | setting | IC50 [µM] |
| --- | --- | --- | --- | --- |
| C=C(CC)C(=O)c1ccc(OCC(=O)NCCNC(=O)COc2ccc(C(=O)C(=C)CC)c(Cl)c2Cl)c(Cl)c1Cl | A549/DDP | cell growth or viability, CCK-8 | 72 h | ~1.2 |
| Cc1cc(N)c2cc(NC(=O)CCCCCC(=O)Nc3ccc4nc(C)cc(N)c4c3)ccc2n1 | CHO wild type | FGF2 binding to heparan sulfate, inhibitor, flow cytometry | on ice, with: biotinylated FGF2 2.5 nM | > 100 |
| N=C(N)NCCC[C@H](N)C(=O)N[C@@H](CC(=O)N[C@@H](CC(=O)O)C(=O)O)c1cccc2ccccc12 | MCF-7 (no HER2 overexpression) | – | – | > 50 |
